# Published values pooled from the literature.
# Values joined by “and” are separate records of one study, mostly repeats; a detail may differ.
# CDK2: Cyclin-dependent kinase 2 (CDK2, Homo sapiens, UniProt P24941)
SMILES,tested on,test,system,conditions,how to read,measurement,value
CCn1cc(-c2cc(Cn3ccoc3=N)cc3c2CCN([C@@H](C)c2cc(OC)ccn2)C3=O)c(C(F)(F)F)n1,BT-20,"cell growth, inhibitor",,120 h,,EC50,2410 nM
COc1ccccc1NC(=O)CSc1nnc(-c2ccc([N+](=O)[O-])cc2)n1-c1ccccc1,CDK2,binding,,,,Kd,> 100000 nM
CN(C)C(=O)c1cc2cnc(Nc3ccc(N4CCNCC4)cn3)nc2n1C1CCCC1,,"RNA-seq GSEA, refers to: HALLMARK_KRAS_SIGNALING_UP gene set",MB002 tumour,concentration not given,"baseline: vehicle, direction not given",enrichment score,-0.396
COc1cnc2cccc(N3CCc4c(cc(Cn5ccnc5C)cc4-c4cn(C)nc4C(F)(F)F)C3=O)c2c1,NCI-H1650,"cell growth, inhibitor",,120 h,,EC50,1330 nM
Cc1n[nH]c2ccc(-c3cc(OC[C@@H](N)Cc4ccccc4)cnc3-c3ccoc3)cc12,orf19.4518 kinase Candida albicans,MIB/MS competition binding,Candida albicans cell lysate,10 µM,"baseline: DMSO, lower = stronger binding",log2 fold change,-0.0364
O=C(O)CNC(=O)Cc1ccccc1,,,"ventricular cardiomyocytes, C57BL/6 mouse","dose not given, 0.56 s",,sarcomere length,1.62 µm
O=C(N1CCc2ccccc21)n1ccnn1,Arabidopsis thaliana,,"atd14-1 mutant, seedlings","5 µM, continuous red light, with: 1 µM (±)-GR24",,hypocotyl length,3.24 mm and 7.64 mm and 2.52 mm and 2.65 mm and 2.7 mm and 2.46 mm
CC(C)n1ncc2c(C(=O)NCC3(C)CNC3)cc(C3CC3)nc21,Enterovirus D68,time-of-addition,"RD, US/MO/14-18947","3 µM, 1 to 1 h post infection",,virus titre,400 PFU/mL and 200 PFU/mL
N#Cc1ccc2c(-c3ccncc3)c(-c3ccc(F)cc3)nn2c1,orf19.4144 kinase Candida albicans,MIB/MS competition binding,Candida albicans cell lysate,10 µM,"baseline: DMSO, lower = stronger binding",log2 fold change,0.0512
CC(=O)NC[C@H]1CN(c2ccc(N3CCOCC3)c(F)c2)C(=O)O1,Staphylococcus aureus,,"MRSA, 10 isolates",serum 25%,,MIC50,1 µg/mL
Oc1ccccc1-c1n[nH]cc1-c1ccnc2ccccc12,CKA2 (Candida albicans),"kinase binding, MIB/MS competition",Candida albicans lysate,10 µM,baseline: DMSO,log2 fold change,0.39
N#Cc1ccn2c(-c3ccncc3)c(-c3ccc(F)cc3)nc2c1,orf19.4518 kinase Candida albicans,MIB/MS competition binding,Candida albicans cell lysate,100 nM,"baseline: DMSO, lower = stronger binding",log2 fold change,-0.0608
Cn1cc(-c2ccc(-c3cncc(Cl)c3N3CCC4(CCNC4=O)CC3)cc2)cn1,COLO 205,"gene expression, microarray, refers to: CABLES1 mRNA",,"concentration not given, 6 h",baseline: untreated cells,log2 fold change,1.26
NC(=O)c1cnc2[nH]ccc2c1N[C@@H]1[C@@H]2CC3C[C@H]1C[C@@](O)(C3)C2,,"total naive T cells, flow cytometry","Caucasian humans, peripheral blood",20 mg single dose,baseline: baseline,percent change,-1.65%
C=C[C@]1(C)C[C@@H](OC(=O)CSCCN(CC)CC)[C@]2(C)[C@H](C)CC[C@]3(CCC(=O)[C@H]32)[C@@H](C)[C@@H]1O,Mycoplasmoides gallisepticum,,"chicken, infected","intramuscular, 40 mg/kg",direction not given,air sac lesion score,3 and 2 and 1
CSc1cc(Oc2ccnc3[nH]c(=O)cnc23)ccc1NC(=O)Nc1cc(C(C)(C)C)nn1-c1ccccc1,p90 ribosomal S6 kinases 1-3,reverse phase protein array,"patient-derived B cell clone line, human","1 µM, 4 h",baseline: DMSO,phospho-Thr359/Ser363 RSK1-3 to total ratio,0.95
COc1cc(C(=O)NS(=O)(=O)c2ccccc2C)ccc1Cc1cn(C)c2ccc(NC(=O)OC3CCCC3)cc12,native VRAC,"ion current, inhibitor, whole-cell patch clamp",wild-type HCT cells,"1 µM, pH 7.4, extracellular pH",,inhibition,-12.5% and 12.2% and -18.2% and -2.43% and -1.79%
[Cl][111In]([Cl])[Cl],U2OS-53BP1 tumour model,111In radiolabel,host not given,18 h,,cellular uptake,0.17 to 0.23 %ID/mg protein
CN[C@H](CC(C)C)C(=O)N[C@H]1C(=O)N[C@@H](CC(N)=O)C(=O)N[C@H]2C(=O)N[C@H]3C(=O)N[C@H](C(=O)N[C@H](C(=O)O)c4cc(O)cc(O)c4-c4cc3ccc4O)[C@H](O)c3ccc(c(Cl)c3)Oc3cc2cc(c3O[C@@H]2O[C@H](CO)[C@@H](O)[C@H](O)[C@H]2O[C@H]2C[C@](C)(N)[C@H](O)[C@H](C)O2)Oc2ccc(cc2Cl)[C@H]1O,Staphylococcus,,"MRSA-11, mouse systemic infection",intravenous,survival,ED50,9.92 mg/kg
CC(C)NCC(O)c1ccc(O)c(O)c1 (stereo not shown),,,"ventricular cardiomyocytes, C57BL/6 mouse","dose not given, 0.472 s",,sarcomere length,1.61 µm
O=C(O)c1cccc(CSc2nnc(-c3ccncc3)o2)c1,CDK2,binding,,,,Kd,> 100000 nM
c1coc(-c2n[nH]cc2-c2ccnc3ccccc23)c1,orf19.3456 Candida albicans,"kinase binding, MIB/MS competition",Candida albicans lysate,1 µM,baseline: DMSO,log2 fold change,-0.32
c1ccc(-c2n[nH]cc2-c2ccnc3ccccc23)nc1,orf19.6492 kinase Candida albicans,MIB/MS competition binding,Candida albicans cell lysate,10 µM,"baseline: DMSO, lower = stronger binding",log2 fold change,1.32
CC/C(=N\NC(=O)NCc1cccc(O)c1)c1ccc(O)c(C)c1O,SK-OV-3,ATP,2D monolayer culture,"10 µM, 4 days",baseline: untreated,relative cell number,113%
C[C@H](Oc1ccc(Br)cc1-c1ccon1)C(=O)O,,response latency,"human, tibialis anterior muscle","800 mg, 30 Hz+30 s",,difference from placebo,0.069%

# Repeated from above:
SMILES,tested on,test,system,conditions,how to read,measurement,value
CC(C)n1ncc2c(C(=O)NCC3(C)CNC3)cc(C3CC3)nc21,Enterovirus D68,time-of-addition,"RD, US/MO/14-18947","3 µM, 1 to 1 h post infection",,virus titre,400 PFU/mL and 200 PFU/mL
N#Cc1ccc2c(-c3ccncc3)c(-c3ccc(F)cc3)nn2c1,orf19.4144 kinase Candida albicans,MIB/MS competition binding,Candida albicans cell lysate,10 µM,"baseline: DMSO, lower = stronger binding",log2 fold change,0.0512
